Assay results gathered from unrelated publications.
Each numbered part is a random draw from the data of one study; scales do not carry over between parts.

Series 1
Target: Ras GTPase-activating protein-binding protein 1, C-terminal RGG region (G3BP1, Homo sapiens, UniProt Q13283)
Sequence of UniProt Q13283 (whole entry, looked up): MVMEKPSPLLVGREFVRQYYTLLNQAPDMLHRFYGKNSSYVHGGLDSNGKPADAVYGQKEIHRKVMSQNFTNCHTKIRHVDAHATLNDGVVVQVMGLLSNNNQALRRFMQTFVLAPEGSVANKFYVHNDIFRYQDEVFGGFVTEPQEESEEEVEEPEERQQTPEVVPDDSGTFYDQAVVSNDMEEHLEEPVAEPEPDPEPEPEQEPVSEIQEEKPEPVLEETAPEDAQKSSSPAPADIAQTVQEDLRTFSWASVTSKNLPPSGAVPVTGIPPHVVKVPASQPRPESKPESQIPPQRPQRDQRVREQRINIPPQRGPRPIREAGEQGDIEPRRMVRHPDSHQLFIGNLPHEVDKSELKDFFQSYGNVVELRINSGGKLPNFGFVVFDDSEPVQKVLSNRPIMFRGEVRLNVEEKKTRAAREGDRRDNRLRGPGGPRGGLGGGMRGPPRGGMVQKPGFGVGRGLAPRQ
Method: RNA Bind-n-Seq
Form: RNA
Medium: in vitro
Tested at: 1 µM
Setting: whole 134-nt RNA, ends assumed
Added: 150 mM KCl
Reference: input library
Reading: higher = stronger binding
All sequences stand within: GGGAGUUCUACAGUCCGACGAUC … UGGAAUUCUCGGGUGUCAAGG
| Sequence | log2 enrichment |
| --- | --- |
| ACCAUGCAGGUGGGCAUCUUUGGGAAGUGGGGCAAGGGGGAAAUAGGGAGGGGGGUAACACUUUGGGAACAGGUGGUCCCAGGUCGUUUC | -0.78 |
| UGGGAGGUGGAUUUUGUUUAUUUUUUUAGCUCAUUUCCAGGGGUGGGAAUUUUUUUUUAAUAUGUGUCAUUAAUAAAGUUGUUUUUGAAA | 3.54 |
| UCAAGUCCUGUGCUACACAUCGUAUGUACCGAAUCGGGUUGGGUUGGGUUGGGGAAAGUAUUAUGUUACGCCGUUCGGAUCUGCACUUCC | 2.9 |
| AACUGGAAGAACAGACCCGUAGGGCUCUGGAACUUGAGCAGGAACGGAAGCGUGCCCAGAGCGAGGCUGAAAAGCUGGCCAAGGAGCGUC | -1.38 |
| UCCUCAAGUCCUGUGCUACACAUCGUAUGUACCGAAUCGGGUGGUGGUGGGAAAGUAUUAUGUUACGCCGUUCGGAUCUGCACUUCCAGC | -0.216 |
| CAAGUCCUGUGCUACACAUCGUAUGUACCGAAUCGGAAAAGGGAAAAGGAAAAGGAAAGUAUUAUGUUACGCCGUUCGGAUCUGCACUUC | -1.63 |
| AGUCCUGUGCUACACAUCGUAUGUACCGAAUCGGGAAAGGGAAAAAAAGGGAAAGGGAAAGUAUUAUGUUACGCCGUUCGGAUCUGCACU | 0.0598 |
| GCAGGAAGUAAAUACAAAUGGAAAUGCUUCGGAUAGUGGCAGGGGUGGGGGUUGCUAAGGAAAGGGUGGGAUGGGAGUGGGUAAAGAGUU | 1.68 |
| GCAGGAAGUAAAAACAAAUGGAAAUGCUUCGGAUAGUGGCAGGGGUGGGGGUUGCUAAGGAAAGGGUGAGAUGGGAGUGGGUAAAGAGUU | 1.84 |
| UCCUGUGCUACACAUCGUAUGUACCGAAUCGGUUUUUUGGUUUUUUGGGGUUUUUUGGGGAAAGUAUUAUGUUACGCCGUUCGGAUCUGC | -0.958 |
| UUUAAACUGAAGCCGCGGCCGAAAACGCCAAGAGAUUGAUGCUGUAGCUGCCCUGAGAUAACCAGGACUGUGGAAUCGGGAAGAGCUCAU | -0.784 |
| CCUGUGCUACACAUCGUAUGUACCGAAUCAAACCCCCAAAUUUUUUUAAAUUUUUUUAAAAAAGUAUUAUGUUACGCCGUUCGGAUCUGC | -1.1 |
| GUCCUGUGCUACACAUCGUAUGUACCGAAUCGGGAAAAAGGAAAAAGGGGAAAAAGGGAAAGUAUUAUGUUACGCCGUUCGGAUCUGCAC | -1.08 |
| UAACUUUAGAGGAGGAUCUGAUGGAUAUGGCAGUGGACGUGGAUUUGGAGAUGGCUAUAAUGGGUAUGGAGGAGGACCUGGAGGUGGCAA | -0.522 |

Series 2
Target: RING finger protein unkempt homolog, zinc fingers 1-6, GST-SBP tag (UNK, Homo sapiens, UniProt Q9C0B0, residues 30-357)
Sequence of UniProt Q9C0B0 (30-357, looked up): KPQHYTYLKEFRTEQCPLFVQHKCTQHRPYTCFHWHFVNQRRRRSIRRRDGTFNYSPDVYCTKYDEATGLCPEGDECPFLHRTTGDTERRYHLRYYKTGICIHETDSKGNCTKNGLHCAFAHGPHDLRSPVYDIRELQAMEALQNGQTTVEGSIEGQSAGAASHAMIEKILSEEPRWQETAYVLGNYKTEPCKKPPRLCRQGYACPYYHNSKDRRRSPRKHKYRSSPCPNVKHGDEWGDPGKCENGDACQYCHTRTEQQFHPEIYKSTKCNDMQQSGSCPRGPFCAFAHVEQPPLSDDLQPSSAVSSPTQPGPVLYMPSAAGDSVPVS
Method: RNA Bind-n-Seq
Form: RNA
Medium: in vitro
Tested at: not given
Setting: RNA with constant flanks, human and mouse sites, ends assumed
Reference: input RNA pool
Reading: higher = stronger binding
All sequences stand within: GGGAGUUCUACAGUCCGACGAUC … CAACAGAGGAUUGAGCAUCA
| Sequence | bound/input enrichment [ratio] |
| --- | --- |
| GUCAUCUCCAACAAAGCCGCCGUAGCCGGCUUAGACCGAGCUGAGCGAGCUGGUAUUCCCACCAGGGUAAUUAAUCACAAAUUAUAUAAAAAUCGUGUUGAGUUUGACAAUGCAGUUGAC | 0.42 |
| AAUGAAGCCUAUUUUGAUGUUGUUGAAGAAAUAGACGCAAUUAUAGAUAAAUCAGGAUCUACAGUCUUUGCAGAAAUUCAGGGGGUCAUUGAUGCUUGCAUUAAACUAUCUGGAAUGCCU | 0.472 |
| GAAGAGGUUCUGCUGGAACAAGCUGGUGUAGAUGCAAGUGAAAGCUUUGAAGAUGUAGGACACUCUUCUGAUGCCAGAGAAAUGCUAAAGCAGUACUACAUUGGUGAUAUCCAUCCGUUG | 0.173 |
| AAAGAUAAAUUCGCAAAGGCCAAAGAAUUUGGAGCCUCUGAAUGUAUUAGCCCCCAAGACUUCAGUAAAUCCAUCCAGGAAGUCCUCGUUGAGAUGACAGAUGGGGGCGUGGAUUACUCC | 0.185 |
| GCAGUUCGCAGAACAGAAACUGGACGCAUCGGAUUAGAAGGCUGCCUUUGUCAAGACUUUUAUAGGAUACGAGACCUUUUAUAUGAACAGUAUGCCAUUGUGUAAAGGACAUGAUGUCAA | 0.182 |
| AGGAUCUGUCGCCUGAACCGCCUCCUGGUCCCUCGAAGCCAUCCCAGAGAACCAGUGGAUCUCCAAUCUAGUCCUGUCCCAUUGCUCCCUCCUGGCUCAGCCUUUCCCACUGCGGGGUUC | 1.01 |
| GAGAGAGUGGAUGGCCCCAAGCACAGUCUCCUUAUGCGUUGAAUAUUGCCAAAUGCUCUUUCUGAAAAUGCUGAAUUGCCUUUUUUGUUUGCAUCCUUUAUUUUUAAUAUUCAUAAUGUC | 0.384 |
| GUUGCCUACAUGUCCCUGGCUGUUGAGGCGCUGCUUCAGCCUGCACCCCUCCCUUGUCUCAUAGAUGCUCCUUUUGACCUUUUCAAAUAAAUAUGGAUGGCGAGCUCCUAGGCCUCUGGC | 0.238 |
| ACCAAACUUUUUCUGAUCUUGGCAAAAAUGUUUCCCCACGUACAAACUGAUGUCCUUGUGCGGGUCAAGGGACCUUUGCUAGCUGCCUGUUCUUCAGAGAGCCGUGAGCUCUGUUUUGUU | 0.144 |
| AUGCAAACUCGGAAAAACCGUAAGAAUGAUGAAGCCUCAUAUGAGAAAAUGCUCAAGCUGCGCCGCGAUCUCAGCCGGGCUGUCACCAUCCUGGAAAUGAUCAAGAGACGGGAGAAGAGU | 0.128 |
| AGGGCCCCGGCAAGAAGUGCGCCAAGCUCAAGGCGCCUGCGGGCAAGGCGGGCGCGGGCAAGGCGGCGCAGCCGGGGGACUGCGCCGCGGGCAAGGCAGCCAAGUGCGUCUUCCUGGACG | 0.275 |

Series 3
Target: Centromere-binding protein 1, full length, N-terminal tag (CBF1, Saccharomyces cerevisiae, UniProt P17106, residues 1-351)
Sequence of UniProt P17106 (whole entry, looked up): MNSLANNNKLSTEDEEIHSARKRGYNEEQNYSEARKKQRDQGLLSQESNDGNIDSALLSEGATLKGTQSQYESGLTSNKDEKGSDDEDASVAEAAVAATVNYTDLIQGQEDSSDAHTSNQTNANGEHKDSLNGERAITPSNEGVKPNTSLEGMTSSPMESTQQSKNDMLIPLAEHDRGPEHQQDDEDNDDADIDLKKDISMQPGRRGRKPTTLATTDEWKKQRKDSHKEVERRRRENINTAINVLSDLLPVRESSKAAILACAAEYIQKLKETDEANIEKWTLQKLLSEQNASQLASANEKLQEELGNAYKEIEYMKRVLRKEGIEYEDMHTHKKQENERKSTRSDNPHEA
Method: protein-binding microarray
Form: double-stranded DNA, one strand shown
Medium: in vitro
Tested at: 0.8 µM
Setting: whole 60-bp probe, no competitor
Reading: higher = stronger binding
All sequences stand within: … GTCTTGATTCGCTTGACGCTGCTG
| Sequence | fluorescence intensity |
| --- | --- |
| GAATGCGCGTGGAAAAGCGTGTCTTTTTCTCATTAG | 532 a.u. |
| CTAATTCTTACGAAACACGTCACAGGGTCAAAATTC | 2560 a.u. |
| TGTACGAAGCTATGACACATGGATATAGTAGTTAGG | 581 a.u. |
| GAAGATCCAGAGGAAAACGCCACCTCTAATGCATAG | 496 a.u. |
| GAACTATTAAATAAACATCAGAACACATTGAGGTAG | 579 a.u. |
| CTACGTTATAGAACACAGGAGACGCTTGCATTATTC | 519 a.u. |
| CTACAAGCCACTTCTCATGACATATATTGGTAATTC | 546 a.u. |
| CTAACCAGATAAAAGAGCGTGCTCCGAAGTTAGTTC | 551 a.u. |
| TGTACGAAGCTATTCAACGTGGTTATAGTAGTTAGG | 568 a.u. |
| TGTACGAAGCTATTGCAGGTGTTTATAGTAGTTAGG | 553 a.u. |
| GAACTTTATATATCCCACGAGGAGACTGCGCGATAG | 573 a.u. |
| GAACATTTGATCTCGAACGTGGTAAACTTGAATTAG | 596 a.u. |
| CTATTTCTGAATGAAAACGTGAAAAGCTTCGCCTTC | 605 a.u. |
| GAACAAAGTACGAGTCACGACATGTAACAAGGGTAG | 1010 a.u. |
| GAACTTCTACTACATCAGCTTTTAGATTTTTCATAG | 553 a.u. |
| CTAGCCTAATATATCCACGTTCTCCGTTGAATTTTC | 580 a.u. |
| GAATCTCTAGTGTCCCACATGAATTGTATTAACTAG | 512 a.u. |
| GAAATGAATCGCACGCACGCGTAAACATTTATCTAG | 650 a.u. |
| GAATCGAAAGCAATGCTGATGATGTACCACAAATAG | 513 a.u. |
| TGTACGAAGCTATACAGCGTGAATATAGTAGTTAGG | 533 a.u. |
| CTATCTGACATTGCTAGTGTCACGTTCAGAAAATTC | 3620 a.u. |
| CTAGACTTACTATACCTGACGGTCCACGGGGTTTTC | 955 a.u. |

Series 4
Target: Histone acetyltransferase KAT6A, winged helix 2, GST fusion (KAT6A, Homo sapiens, UniProt Q92794, residues 85-181)
Method: protein binding microarray
Form: double-stranded DNA, one strand shown
Medium: in vitro
Tested at: not given
Setting: 8-mer, flanks averaged, mean of 2 arrays, mostly near background
Reference: not given
Reading: higher = stronger binding
Target sequence (chain): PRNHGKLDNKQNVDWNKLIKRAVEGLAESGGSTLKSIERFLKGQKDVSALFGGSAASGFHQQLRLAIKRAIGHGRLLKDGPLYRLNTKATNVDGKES
| Sequence | E-score |
| --- | --- |
| CCGCGGAG | 0.22 |
| TACTGCAA | -0.103 |
| CCTTCACG | 0.0166 |
| GATAGCGC | 0.178 |
| ACTTCAAG | -0.132 |
| ACATGCAT | -0.129 |
| AATATACT | -0.179 |
| ATTGGGCG | 0.051 |
| ACGATACA | -0.0205 |
| GCGGCCTA | -0.0962 |
| CCAGTTTC | -0.0031 |
| CCAAGCAG | -0.0713 |
| AACGTGAT | -0.0874 |
| TAAGCTCA | -0.0381 |
| ACTCCAGT | -0.131 |
| CCCGCTCA | -0.00333 |
| GAGGATAC | -0.00892 |
| CCATACGG | -0.0339 |
| GGGGAAAC | 0.211 |
| CCTATTAA | -0.0555 |
| CACTATAA | -0.18 |
| CTAGATCC | -0.0673 |
| CACTTTGC | 0.0566 |
| CAGAATGA | -0.0616 |
| GCCGTAGA | 0.12 |

For quick reference, copied from above (series 1):
| Sequence | log2 enrichment |
| --- | --- |
| AGUCCUGUGCUACACAUCGUAUGUACCGAAUCGGGAAAGGGAAAAAAAGGGAAAGGGAAAGUAUUAUGUUACGCCGUUCGGAUCUGCACU | 0.0598 |
| GCAGGAAGUAAAUACAAAUGGAAAUGCUUCGGAUAGUGGCAGGGGUGGGGGUUGCUAAGGAAAGGGUGGGAUGGGAGUGGGUAAAGAGUU | 1.68 |
| GCAGGAAGUAAAAACAAAUGGAAAUGCUUCGGAUAGUGGCAGGGGUGGGGGUUGCUAAGGAAAGGGUGAGAUGGGAGUGGGUAAAGAGUU | 1.84 |
| UCCUGUGCUACACAUCGUAUGUACCGAAUCGGUUUUUUGGUUUUUUGGGGUUUUUUGGGGAAAGUAUUAUGUUACGCCGUUCGGAUCUGC | -0.958 |
| UUUAAACUGAAGCCGCGGCCGAAAACGCCAAGAGAUUGAUGCUGUAGCUGCCCUGAGAUAACCAGGACUGUGGAAUCGGGAAGAGCUCAU | -0.784 |
| CCUGUGCUACACAUCGUAUGUACCGAAUCAAACCCCCAAAUUUUUUUAAAUUUUUUUAAAAAAGUAUUAUGUUACGCCGUUCGGAUCUGC | -1.1 |
| GUCCUGUGCUACACAUCGUAUGUACCGAAUCGGGAAAAAGGAAAAAGGGGAAAAAGGGAAAGUAUUAUGUUACGCCGUUCGGAUCUGCAC | -1.08 |
